Assay results from different studies.
Each numbered part is a random draw from the data of one study; scales do not carry over between parts.
Sequence of UniProt Q8WYB5 (whole entry, looked up): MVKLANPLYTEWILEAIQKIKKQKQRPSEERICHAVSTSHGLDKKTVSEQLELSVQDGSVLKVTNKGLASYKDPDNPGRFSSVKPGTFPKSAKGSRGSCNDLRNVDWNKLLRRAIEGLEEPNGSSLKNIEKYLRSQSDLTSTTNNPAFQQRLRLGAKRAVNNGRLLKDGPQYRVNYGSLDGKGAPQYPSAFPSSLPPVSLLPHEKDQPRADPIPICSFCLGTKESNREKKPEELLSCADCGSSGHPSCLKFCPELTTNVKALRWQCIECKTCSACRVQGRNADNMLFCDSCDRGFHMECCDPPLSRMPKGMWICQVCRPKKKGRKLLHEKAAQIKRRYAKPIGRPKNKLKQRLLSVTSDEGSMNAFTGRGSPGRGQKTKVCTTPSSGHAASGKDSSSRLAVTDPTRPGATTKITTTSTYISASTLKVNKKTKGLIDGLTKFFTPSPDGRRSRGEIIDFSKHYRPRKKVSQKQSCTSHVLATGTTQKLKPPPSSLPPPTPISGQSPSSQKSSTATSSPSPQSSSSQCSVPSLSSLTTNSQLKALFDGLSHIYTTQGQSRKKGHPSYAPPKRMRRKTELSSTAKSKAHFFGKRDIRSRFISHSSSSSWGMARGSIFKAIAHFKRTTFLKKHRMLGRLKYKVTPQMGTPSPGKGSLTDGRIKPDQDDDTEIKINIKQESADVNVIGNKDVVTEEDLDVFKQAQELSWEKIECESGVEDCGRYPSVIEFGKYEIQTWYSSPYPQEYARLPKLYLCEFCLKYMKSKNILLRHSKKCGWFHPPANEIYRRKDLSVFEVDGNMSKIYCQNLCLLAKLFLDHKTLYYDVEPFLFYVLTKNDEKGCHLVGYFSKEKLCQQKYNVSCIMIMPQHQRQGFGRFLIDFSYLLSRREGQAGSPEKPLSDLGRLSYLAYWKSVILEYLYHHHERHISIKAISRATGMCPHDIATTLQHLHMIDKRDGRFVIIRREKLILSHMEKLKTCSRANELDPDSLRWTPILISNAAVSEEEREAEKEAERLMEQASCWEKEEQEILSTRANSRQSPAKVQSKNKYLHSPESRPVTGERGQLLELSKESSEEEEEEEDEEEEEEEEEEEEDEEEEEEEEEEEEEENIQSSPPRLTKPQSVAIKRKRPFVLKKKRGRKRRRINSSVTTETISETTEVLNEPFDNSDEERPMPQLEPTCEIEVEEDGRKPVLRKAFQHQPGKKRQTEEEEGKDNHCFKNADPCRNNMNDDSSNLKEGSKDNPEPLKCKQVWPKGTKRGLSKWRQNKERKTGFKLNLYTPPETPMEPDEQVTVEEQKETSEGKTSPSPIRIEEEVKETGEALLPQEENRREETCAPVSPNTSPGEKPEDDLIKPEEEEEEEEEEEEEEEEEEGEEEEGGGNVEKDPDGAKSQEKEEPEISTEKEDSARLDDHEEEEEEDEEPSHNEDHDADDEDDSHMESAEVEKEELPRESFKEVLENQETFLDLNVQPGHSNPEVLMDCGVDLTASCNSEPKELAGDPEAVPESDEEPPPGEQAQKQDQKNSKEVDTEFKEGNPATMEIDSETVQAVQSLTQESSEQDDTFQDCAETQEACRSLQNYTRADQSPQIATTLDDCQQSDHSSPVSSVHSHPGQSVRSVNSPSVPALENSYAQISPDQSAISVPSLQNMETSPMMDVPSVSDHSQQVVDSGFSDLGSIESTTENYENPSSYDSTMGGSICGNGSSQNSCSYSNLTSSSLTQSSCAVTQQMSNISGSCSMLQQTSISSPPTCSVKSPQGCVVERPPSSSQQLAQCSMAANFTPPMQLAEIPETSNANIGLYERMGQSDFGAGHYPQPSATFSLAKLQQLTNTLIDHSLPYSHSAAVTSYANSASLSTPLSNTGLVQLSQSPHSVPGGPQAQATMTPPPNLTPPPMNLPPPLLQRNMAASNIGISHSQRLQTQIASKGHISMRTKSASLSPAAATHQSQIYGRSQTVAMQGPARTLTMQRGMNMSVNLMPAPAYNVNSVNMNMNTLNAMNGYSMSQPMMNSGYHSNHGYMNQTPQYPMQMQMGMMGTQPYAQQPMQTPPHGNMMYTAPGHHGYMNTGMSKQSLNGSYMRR

Series 1
Target: Fragile X messenger ribonucleoprotein 1, C-terminal low-complexity region (Fmr1, Mus musculus, UniProt P35922)
Method: RNA Bind-n-Seq
Molecule type: RNA
Matrix: in vitro
Concentration: 200 nM
Notes: whole 134-nt RNA, ends assumed
Added: 150 mM KCl
Reference: input library
Reading: higher = stronger binding
Measurement: log2 enrichment
GGGAGUUCUACAGUCCGACGAUCGCAGGAAGUAAAAACAAAUGGAAAUGCUUCGGAUAGUGGCAGGGGUGGGGGUUCCUAAGGAAAGGGUGGGAUGGGAGUGGGUAAAGAGUUUGGAAUUCUCGGGUGUCAAGG: 0.841
GGGAGUUCUACAGUCCGACGAUCAAGUCCUGUGCUACACAUCGUAUGUACCGAAUCGGAAAGGAAAAAAAGGAAAAAGGAAAGUAUUAUGUUACGCCGUUCGGAUCUGCACUUUGGAAUUCUCGGGUGUCAAGG: -0.751
GGGAGUUCUACAGUCCGACGAUCCAAGUCCUGUGCUACACAUCGUAUGUACCGAAUCGGUUUUUGGAGGUUUUUUUGGAAAGUAUUAUGUUACGCCGUUCGGAUCUGCACUUCUGGAAUUCUCGGGUGUCAAGG: -0.626

Series 2
Target: Centromere-binding protein 1, full length, N-terminal tag (CBF1, Saccharomyces cerevisiae, UniProt P17106, residues 1-351)
Sequence of UniProt P17106 (whole entry, looked up): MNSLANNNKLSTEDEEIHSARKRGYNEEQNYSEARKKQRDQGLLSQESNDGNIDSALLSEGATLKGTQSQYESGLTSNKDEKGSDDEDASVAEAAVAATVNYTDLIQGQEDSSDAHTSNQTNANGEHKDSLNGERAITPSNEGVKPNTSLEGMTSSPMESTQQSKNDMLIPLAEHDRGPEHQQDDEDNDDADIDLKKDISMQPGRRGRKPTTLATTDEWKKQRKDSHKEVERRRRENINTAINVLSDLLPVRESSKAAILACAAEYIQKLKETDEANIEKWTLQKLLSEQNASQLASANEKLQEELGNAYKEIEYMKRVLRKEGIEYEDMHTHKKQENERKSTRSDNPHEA
Method: protein-binding microarray
Molecule type: double-stranded DNA, one strand shown
Matrix: in vitro
Concentration: 0.8 µM
Notes: whole 60-bp probe, no competitor
Reading: higher = stronger binding
Measurement: fluorescence intensity
Constant ends, left off below: … GTCTTGATTCGCTTGACGCTGCTG
CTAAACGCCAACTCTCACATGGTAGCAGGCGGGTTC: 625 a.u.
GAACTTCTAATCCATCAGATGGGCCAATAATAGTAG: 583 a.u.
CTACAAAAAATGAGTCACGCACGCACAATCACGTTC: 1110 a.u.
CCTAACTACTATAGCAAAATCACATAGCTTCGTACA: 547 a.u.
GAACCTTCCCCACCGCATGTGAAAAAAGCTCGATAG: 595 a.u.

Other studies, line by line
PhoQ, residues 284 288 289 292 302 303 TTSMTC
fold induction (PhoP, residues 12 14 15 18 19 IQSYL (Escherichia coli, UniProt P23836); Sort-seq, measured: YFP reporter; E. coli; PhoQ-PhoP variant library, added: 10 µM Mg2+; reference: high Mg2+ state, higher = stronger signaling): 11.2

GGCCTGCGCAGGCC (dsDNA)
binding (KAT6B 1-100 (Homo sapiens, UniProt Q8WYB5); EMSA; double-stranded DNA, one strand shown): binds
